Measurements collected from several papers.
Each line is one published result; not all experiments were run side by side. ± gives the spread as reported.

| Structure (SMILES) | target or system | test | system | setting | endpoint | value |
| --- | --- | --- | --- | --- | --- | --- |
| CCCCCCCC(=O)N[C@@H](CCCCN)C(=O)N[C@@H](CCCCN)C(=O)N[C@@H](C)C(=O)N[C@@H](CC(C)C)C(=O)N[C@@H](CCCCN)C(=O)N[C@@H](CC(C)C)C(=O)N[C@@H](C)C(=O)N[C@@H](CCCCN)C(=O)N[C@@H](CCCCN)C(=O)N1CCC[C@H]1C(=O)N[C@@H](CC(C)C)C(=O)N[C@@H](CCCCN)C(=O)N[C@@H](CC(C)C)C(=O)N[C@@H](CC(C)C)C(=O)N[C@@H](CCCCN)C(N)=O | – | – | mouse ICR CD1 female, whole blood | intravenous bolus, 3 mg/kg | Tmax | 3 ± 1.8 min |
| COc1cccc2c1CCCC2CCCN1CCN(C2CCCCC2)CC1 (stereo not drawn) | – | – | CD-1 mouse, male, plasma | intraperitoneal, 3 mg/kg | Tmax | 15 min |
| CCC[C@@](N)(CO)CCc1ccc(OCCCCCC(C)C)cc1 | – | – | dog | oral, 15 mg/kg | Tmax | 360 min |
| N#C[C@@]1(n2ccc(N)nc2=O)O[C@H](CO)[C@@H](O)[C@H]1O | – | – | CD-1 mouse, plasma | intravenous, 15 mg/kg | Tmax | 30 min |
| O=C(O)C(O)(c1cccs1)c1cccs1 | – | – | human, cerebrospinal fluid | oral, 2 mg once daily, 5 days, median | Tmax | 480 min |
| N.N.O=C([O-])C1(C(=O)[O-])CCC1.[Pt+2] | – | measured: unbound platinum | human, plasma ultrafiltrate | intravenous, AUC 2, median, dose level -4 | Tmax | 36 min |
| C[C@H](NC(=O)c1c(C(F)F)nn(C)c1Oc1cccc(C(F)(F)F)c1)c1ccc(C(=O)O)cc1 | – | – | human, plasma | 250 mg, cycle 1 day 8, median | Tmax | 30 min |
| NC(=O)c1cccc(-c2cc(OC(=O)NC3CCCCC3)ccc2O)c1 | – | – | mouse, plasma | oral, 10 mg/kg | Tmax | 30 min |
| CNCCC=C1c2ccccc2CCc2ccccc21 | Plasmodium falciparum | – | 7G8 | – | IC50 | 7.94 µM |
| CC/C(=C(\c1ccccc1)c1ccc(OCCN(C)C)cc1)c1ccccc1 | – | – | CD-1 mouse, male, lung | intraperitoneal, 0.3 mg/kg | Tmax | 360 min |
| OC(c1cc(C(F)(F)F)nc2c(C(F)(F)F)cccc12)C1CCCCN1 (stereo not drawn) | Plasmodium falciparum | – | D10 | – | IC50 | 0.062 µM |
| Cc1ccc(F)c2cc(C(=O)N[C@@H]3CCC[C@H](N4CC[C@H](N(C)S(C)(=O)=O)C4)C3)[nH]c12 | – | – | CD1 mouse | oral, 100 mg/kg | Tmax | 72 min |
